Results pooled from the literature.
Protocols differ between the studies behind these lines. ± marks the error that the study gave.
CNR1: Cannabinoid receptor 1 (CNR1, Homo sapiens, UniProt P21554)
Sequence of UniProt P21554 (whole entry, unmodified, looked up): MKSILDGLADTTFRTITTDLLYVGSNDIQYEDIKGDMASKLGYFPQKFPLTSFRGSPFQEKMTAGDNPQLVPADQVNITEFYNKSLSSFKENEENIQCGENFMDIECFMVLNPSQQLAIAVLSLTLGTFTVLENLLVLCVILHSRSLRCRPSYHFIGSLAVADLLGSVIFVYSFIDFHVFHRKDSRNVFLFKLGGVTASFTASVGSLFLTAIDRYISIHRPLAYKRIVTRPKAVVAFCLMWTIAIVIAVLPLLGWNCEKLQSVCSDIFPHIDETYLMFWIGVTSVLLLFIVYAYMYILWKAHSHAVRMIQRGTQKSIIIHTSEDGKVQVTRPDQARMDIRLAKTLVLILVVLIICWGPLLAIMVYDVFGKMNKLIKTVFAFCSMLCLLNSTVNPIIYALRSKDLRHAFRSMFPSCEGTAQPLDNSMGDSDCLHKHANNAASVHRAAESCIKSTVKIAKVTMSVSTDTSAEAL

Structure (SMILES)	target	test	system	setting	how to read	measurement	value
CCC(CC)(NC(=O)c1ccc(C2CC2)c(Cc2ccc(F)cc2)n1)C(=O)NCCOCCOCCNC(=O)c1ccc2c(c1)C(=O)OC21c2ccc(N)c(S(=O)(=O)O)c2Oc2c1ccc(N)c2S(=O)(=O)O	CNR1	binding	CHO membranes	10 µM, together with: [3H]CP55940		displacement	36 ± 6%
CCCCCc1ccccc1C/C=C\C/C=C\C/C=C\CCCC(=O)N[C@H](C)CO	CNR1	cAMP, agonist		10 µM, highest concentration tested		Emax	70%
CCCCCCC(C)(C)c1ccc(C2CC(O)CCC2CCCO)c(O)c1 (centres unmarked)	CNR1	forskolin-stimulated adenylyl cyclase, agonist	CHO cells	1 µM		inhibition	79%
O=c1ccc2ccccc2o1	CNR1	agonist radioligand binding		10 µM, SafetyScreen44		inhibition	1.68%
O=C(O)c1cn(Cc2ccc(F)cc2)c2ccccc12	CNR1	agonist, GTPγS binding		concentration not given		activity	inactive
CCCCC/C=C\[C@H](C)/C=C\C/C=C\Cc1ccccc1CCCC(=O)OC(CO)CO	CNR1	cAMP, agonist		10 µM, highest concentration tested		Emax	34%
CCCCCCC(C)(C)c1ccc([C@@H]2C[C@H](O)CC[C@H]2CCCO)c(O)c1	CNR1	binding, agonist, radioligand binding				Hill coefficient	0.9
CCCCCCC(C)(C)c1ccc([C@@H]2C[C@H](O)CC[C@H]2CCCO)c(O)c1	Cannabinoid receptor 1 (CNR1, Homo sapiens, UniProt P21554, H178A)	Gαi1 engagement, agonist, BRET		TM2 mutant H178A	baseline: wild type receptor	Emax	57.7 ± 5.2%
CN1CCN(c2cc(-c3ccncc3)c(-c3ccc4ccccc4c3)nn2)CC1	CNR1	antagonist, FLIPR		10 µM		inhibition	-3.5%
CCCCC/C=C\C/C=C\C/C=C\Cc1ccccc1CCCC(=O)N[C@H](C)CO	CNR1	cAMP, agonist		10 µM, highest concentration tested		Emax	92%
COC(=O)[C@@H](NC(=O)c1nn(Cc2ccc(F)cc2)c2ccccc12)C(C)(C)C	CNR1	β-arrestin-1 recruitment, agonist			baseline: compound maximum	Emax	96 ± 8%

Some of these lines once more:
Structure (SMILES)	target	test	system	setting	how to read	measurement	value
CN1CCN(c2cc(-c3ccncc3)c(-c3ccc4ccccc4c3)nn2)CC1	CNR1	antagonist, FLIPR		10 µM		inhibition	-3.5%
